Measured values collected from several papers.
Parts stem from different laboratories: compare values within a part only.

Block 1
Target: Sal-like protein 4, full length isoform A (SALL4, Homo sapiens, UniProt Q9UJQ4, residues 1-1053)
Sequence of UniProt Q9UJQ4 (whole entry, looked up): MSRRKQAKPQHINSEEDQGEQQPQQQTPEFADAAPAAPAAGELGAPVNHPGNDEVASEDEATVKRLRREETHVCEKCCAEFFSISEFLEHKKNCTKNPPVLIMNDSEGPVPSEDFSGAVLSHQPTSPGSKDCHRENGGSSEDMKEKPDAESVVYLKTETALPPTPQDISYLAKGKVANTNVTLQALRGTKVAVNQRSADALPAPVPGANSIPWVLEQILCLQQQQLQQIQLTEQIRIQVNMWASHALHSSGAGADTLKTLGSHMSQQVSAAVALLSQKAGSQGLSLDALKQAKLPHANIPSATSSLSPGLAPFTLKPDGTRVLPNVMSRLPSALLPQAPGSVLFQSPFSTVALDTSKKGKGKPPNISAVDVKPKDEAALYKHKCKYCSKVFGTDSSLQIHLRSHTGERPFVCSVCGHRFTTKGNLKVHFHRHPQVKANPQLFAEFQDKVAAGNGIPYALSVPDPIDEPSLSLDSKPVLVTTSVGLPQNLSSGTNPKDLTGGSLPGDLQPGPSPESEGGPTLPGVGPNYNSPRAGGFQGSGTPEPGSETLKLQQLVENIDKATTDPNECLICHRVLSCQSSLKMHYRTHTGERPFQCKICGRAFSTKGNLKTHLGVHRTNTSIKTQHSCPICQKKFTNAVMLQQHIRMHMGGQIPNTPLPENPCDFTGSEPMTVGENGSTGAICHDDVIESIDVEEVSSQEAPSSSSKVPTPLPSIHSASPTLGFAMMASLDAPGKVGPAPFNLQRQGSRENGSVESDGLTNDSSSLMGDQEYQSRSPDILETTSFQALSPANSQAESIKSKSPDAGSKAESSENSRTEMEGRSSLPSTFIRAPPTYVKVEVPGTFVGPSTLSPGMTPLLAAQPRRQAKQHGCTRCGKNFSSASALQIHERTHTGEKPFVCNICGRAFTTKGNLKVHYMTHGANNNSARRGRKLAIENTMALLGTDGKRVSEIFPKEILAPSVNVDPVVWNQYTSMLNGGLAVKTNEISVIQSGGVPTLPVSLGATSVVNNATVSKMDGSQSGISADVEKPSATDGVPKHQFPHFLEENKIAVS
Method: universal PBM
Form: double-stranded DNA, one strand shown
Matrix: in vitro
Concentration: 600 nM
Notes: 8-mer, flanks averaged, mean of replicates
Reading: higher = stronger binding
Endpoint: E-score
GTGGATAA: 0.167
CCGCCCGA: -0.279
AGGCTGAT: -0.0334
GCCGGTTA: -0.129
ACGTCTGC: -0.199
CCGTGTTC: -0.0284
CGACCCAA: -0.0539
CCTGGCGC: -0.373
AGGCGTGG: -0.373
CTGGTCGA: -0.292
TCGAAACA: 0.162
CACCTACG: -0.178
GGTACCAA: -0.253
ATGACATC: 0.156
AGCTTGTA: 0.0532
CGCCCCCC: -0.422
GTAGCGCA: -0.146
CTGCAAGA: 0.0194
AGCAGCTA: -0.0294
GCTCCTTA: -0.0767
AGGCAACT: 0.092
CAGACAAC: -0.0477
AAACTGCA: -0.037
CGTGAGCC: -0.282
GTTCACCA: -0.131

Block 2
Target: Interferon regulatory factor 3, full length, phosphomimetic (IRF3, Homo sapiens, UniProt Q14653, residues 1-427, S386D/S396D/S398D/S402D/T404D/S405D)
Sequence of UniProt Q14653 (whole entry, unmodified, looked up): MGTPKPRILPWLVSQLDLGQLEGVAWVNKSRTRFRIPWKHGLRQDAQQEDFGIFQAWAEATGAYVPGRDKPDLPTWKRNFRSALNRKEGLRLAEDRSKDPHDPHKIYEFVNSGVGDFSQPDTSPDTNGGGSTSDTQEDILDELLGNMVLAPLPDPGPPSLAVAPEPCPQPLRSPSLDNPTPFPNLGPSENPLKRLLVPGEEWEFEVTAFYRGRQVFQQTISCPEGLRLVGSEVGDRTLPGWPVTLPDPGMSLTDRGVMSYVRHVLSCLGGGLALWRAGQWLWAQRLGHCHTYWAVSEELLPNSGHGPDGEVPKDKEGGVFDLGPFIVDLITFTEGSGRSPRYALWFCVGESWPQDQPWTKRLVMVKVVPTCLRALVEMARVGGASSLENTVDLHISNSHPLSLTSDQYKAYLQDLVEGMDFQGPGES
Method: protein-binding microarray
Form: double-stranded DNA, one strand shown
Matrix: in vitro
Concentration: 2540 nM top
Notes: 60-bp whole probe
Added: salmon DNA 0.4 mg/ml
Reference: random background probes
Reading: higher = stronger binding
Endpoint: fitted relative affinity
Constant ends, left off below: GCCTAGCAC … GTCTTGATTCGCTTGACGCTGCTG
TCATGTCTGGGTATTTTACTGTGCTAG: -0.24 z-score
GACGGTCTCCTTCTGCTGACGTGCTAG: 2.33 z-score
CTCTTTCTCTGCTACCCTCTGGTGCTA: 2.35 z-score
GACGAACTGGGGTTTTGAGACGTGCTA: -0.59 z-score
TCACCTTTCAGTTTTCCACTGTGCTAG: 3.58 z-score
GACGGTCTCCTTTTCTTGACGTGCTAG: 4.62 z-score
TCAACTTTAAATTAGACACTGTGCTAG: 0.187 z-score
TTAGAATTCAGACTGGATTAGTGCTAG: -0.0662 z-score
GACGGTATCGGTTTGGGGACGTGCTAG: 4.71 z-score
TTAGGTCTCCTACTGCTTCAGTGCTAG: 0.749 z-score
TCAGGCCTCTTCATTCATACTGTGCTA: -0.513 z-score
GATGGGCTACCTCTCTTAGAGTGCTAG: -0.821 z-score
GACGCTTTCGACTATCGGGACGTGCTA: 0.821 z-score
AACCATTTTGGTTTTCTCTAGTGCTAG: 1.8 z-score
TCATTTTTTGGAATGTCACTGTGCTAG: 1.18 z-score
GTTAGAATGTCCTTTCTCCATGTGCTA: 3.85 z-score

Block 3
Target: Centromere-binding protein 1, full length, N-terminal tag (CBF1, Saccharomyces cerevisiae, UniProt P17106, residues 1-351)
Sequence of UniProt P17106 (whole entry, looked up): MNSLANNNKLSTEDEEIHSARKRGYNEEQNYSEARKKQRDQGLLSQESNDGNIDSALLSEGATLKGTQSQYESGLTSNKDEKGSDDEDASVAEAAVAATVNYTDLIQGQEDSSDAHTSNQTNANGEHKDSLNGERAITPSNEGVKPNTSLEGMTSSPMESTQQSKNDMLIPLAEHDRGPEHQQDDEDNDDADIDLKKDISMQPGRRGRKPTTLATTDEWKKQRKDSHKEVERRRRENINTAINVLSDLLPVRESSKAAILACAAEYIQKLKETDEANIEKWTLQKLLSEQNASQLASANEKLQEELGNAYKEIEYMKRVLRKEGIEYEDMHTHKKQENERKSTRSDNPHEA
Method: protein-binding microarray
Form: double-stranded DNA, one strand shown
Matrix: in vitro
Concentration: 0.8 µM
Notes: whole 60-bp probe, no competitor
Reading: higher = stronger binding
Endpoint: fluorescence intensity
Constant ends, left off below: … GTCTTGATTCGCTTGACGCTGCTG
CTAATGGTTCTAGTTAGTCACGTGCAGCTTTTTTTC: 21300 a.u.
CTAGTCGGTTCATTGCATGTGCTGTTACACTTCTTC: 621 a.u.
CTAACGAGCCTTCATCACGTGCATTAAAGAAATTTC: 10400 a.u.
GAATACCATTTGGATCATGTGCCTTTGCCAACTTAG: 1710 a.u.
CTAATTCTGTATAACCTCACCTGCACGTAATCTTTC: 646 a.u.
CTATACGATTATATTGACGTGATAAAAAGATTATTC: 583 a.u.
CTATAAATTTTAATTCTCATGATAGTAACGATCTTC: 560 a.u.
CTATCAGCAACAGTACGCACCACCTTCACAGCATTC: 567 a.u.
CTATACTCTAAAAATGTGGTGGTGGCTTAATGCTTC: 504 a.u.
GAAGAAATGAAAAATTACATCAGCGAACTAATGTAG: 489 a.u.
GAAATCTTCAGGTGTGACGTTGTGTTGTGTCAATAG: 631 a.u.
GAATTGGTGTTAAATGACCAGGTGAGCCTCACTTAG: 648 a.u.
GAAGTCTCTGCCTGGAGCGTGACATTTAGGACGTAG: 794 a.u.
GAACTTTAAGTCCATCACATGGTGTTTTATGGGTAG: 1930 a.u.
CTAAGGTGTTGTATGAACGTGAAAGAAATCGAGTTC: 774 a.u.
CTAAGCAGTTCCTCAGGTGTTTCTTGTTACTGCTTC: 512 a.u.
CTAGATCATCATTATTATCACCTGTTTTCGCTTTTC: 914 a.u.
GAAAAAGGCGGGGCAAACGTGATGGCGCTTGCTTAG: 611 a.u.
GAACCAAAAGCTAATCACGAAATTGAGTGGATGTAG: 576 a.u.
CCTAACTACTATATGGACGTGAGATAGCTTCGTACA: 507 a.u.
CCTAACTACTATAATGACGTCATATAGCTTCGTACA: 525 a.u.
CCTAACTACTATAACGTGCCTACATAGCTTCGTACA: 636 a.u.
GAAGGTTAATCACATGGCGTGGCTTGCTCCACGTAG: 2980 a.u.
GAAAAACTCAAAAACCACATGCTTCTCTTGAGTTAG: 619 a.u.
CTACTATGAATTTCACACCATATCCTTATCTAATTC: 532 a.u.

Block 4
Target: RNA binding protein fox-1 homolog 2, RRM domain, GST-SBP tag (RBFOX2, Homo sapiens, UniProt O43251-10, residues 100-194)
Method: RNA Bind-n-Seq
Form: RNA
Matrix: in vitro
Concentration: 365 nM
Notes: natural RNA segment, single round, ends assumed
Reference: no-protein control
Reading: higher = stronger binding
Endpoint: RBNS enrichment (R)
Constant ends, left off below: GGGAGUUCUACAGUCCGACGAUC … UGGAAUUCUCGGGUGCCAA
Residues (chain): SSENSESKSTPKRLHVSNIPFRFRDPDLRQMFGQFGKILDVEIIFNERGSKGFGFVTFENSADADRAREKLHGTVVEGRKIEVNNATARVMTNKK
UGCUUCAAAGACAGGAGUUCACUGGGGGAUUCAGAAAGCUUGCCGUUUAUGUUGGUCGCAUCAAACAGCUUGUGGGAUUGUUUCCUCUUCUGUACAUGUUUUCCCCUUUG: 0.346
AAUGUAUUUUCUUCACCUCUGCUACUCAAGUAGCAUUUACUGUGUCUUUGGUUUGUGCUAGGCCCCCGGGUGUGAAGCACAGACCCCUUCCAGGGGUUUACAGUCUAUUU: 0.958
CUCUAAGAACACUGAAAAAUCCACCGAUUUUUUGGGUAAGCUUCUUGGCAAUACCCUGUGGAUCUGAAACAGCUAAAAAAAUGAAUUUGAAUUGCGCCAGAUAGGUCAAU: 0.288
UAAGAGUGGGAGGCAGCCAAGACCCCCUUCCUUCAAAACCUCCCGGAAGUGGUUUCAGGCCCUCUAGUUGCCAUGACCAAUUUGUGUGUGUGUUUAAUUUUUGCUUCAAG: 0.502
GUUGUCCUGGGUCUGGCAGUGGUUGUGAUUUAUAGCCAAUUGUGCUAAAGGAUUUUUCUACCUUGAGAUCUCCCGAGAAAUGAAAACUCAGGCAGUUUAGUCCAUAGUAG: 0.489
GAGAAAGUUUGGGGCAUGAUAUAUGUCCAUUUCUCUACGAAAUAUUUGUUAUGGAGCUGUGCUAAUUUCACUAUCAAAAUAUUUGUUGGAUGAAUAAAUGCUACGAAACG: 0.971
UGAGGCCAUUCUCUCUUUGGUUCCUUUCUAAUCUAUCCACACAUGCCUUUCCCUUCUUUGAUCCCCUCCCUUCCAUUGUUCAUUCAUGAAGAGUUUUGUUAGAGACAAGC: 0.452
AAACAGUGGGGCCAGCUGCCCUGGUAUUCCAGAUACCCUGAAGCGUCUCCGUGCAGAUCUUGAAGAGAAAGAACCUCGGCUGCUGUGCUGGGGUUGAACAGAGCCUCCCA: 0.313
CCUUUAUUUGACCAGUUAAAAUGGGCAAAAGGUUCACAUGCUGUCACCUGAGCACAUGGUCUACUGCUUAAGGGCAUGGGGGAGGGGACCGCCCCUCUUGAGGAAGCAGA: 8.87
CGGGUGAAGGGCUCAGCCUUCUCACCCAUCCCUCAUUGCUGGAACCAAGUGCCAAGACUACCACAACCAUCAGCUACAACUGCAACCUGAGAAAACAGACAUCACCCUCU: 0.328
GAGUGGAUAAGCCUGCAUUAAUACAACCUUUCUCCAUUCACUUUCUAUUUACAAAUUAGGAAAGCAACCUUUUGGUUUAUAUAUAUUUUUUUUAAUACCUCAGUGCUGCA: 0.847
GGAAGAACCAUGGUAGCUUGUCAGCUGGUAGAAAGAUGGUUUGUAAAAACCAGUUUCUCACGGAGGUUGAACCUAUCUGUGGCUGGACAGUCUUGGAUACUGUCAAGCAA: 0.283

Block 5
Target: Prothrombin, mature alpha-thrombin (F2, Homo sapiens, UniProt P00734)
Method: aptamer microarray, sandwich
Form: DNA with 2'F-ANA
Matrix: in vitro
Concentration: 200 nM
Notes: whole 15-mer aptamer, many near background
Added: Cy3 exosite-II aptamer, 400 nM
Reading: higher = stronger binding
Endpoint: mean fluorescence intensity
Oligonucleotide: GGTTGGTGTGGTTGG
2'F-ANA at 1 2 3 4 8 10 12 13 15: 64.4 a.u.
2'F-ANA at 1 4 7 9 10 11 15: 82.1 a.u.
2'F-ANA at 1 2 3 4 7 8 9 10: 62.6 a.u.
2'F-ANA at 1 3 5 6 10 12 13 14 15: 53 a.u.
2'F-ANA at 1 4 8 9 11 15: 156 a.u.
2'F-ANA at 1 3 5 8 9 10 11 13: 51.6 a.u.
2'F-ANA at 2 10 12 13 14: 137 a.u.
2'F-ANA at 1 2 4 6 7 8 9 10 11 12 13 15: 52.8 a.u.
2'F-ANA at 1 2 3 10 12 14 15: 52.3 a.u.
2'F-ANA at 3 9 10 12 15: 719 a.u.
2'F-ANA at 2 4 6 7 10 12 14 15: 70.4 a.u.
2'F-ANA at 1 2 3 8 10 12 13: 85.9 a.u.
2'F-ANA at 4 10 13 14 15: 64.2 a.u.
2'F-ANA at 1 2 3 6 12 13 14: 82.8 a.u.
2'F-ANA at 1 2 4 5 6 7 8 10 12 13 14: 49.3 a.u.
2'F-ANA at 1 3 5 6 7 8 11 14 15: 74 a.u.
2'F-ANA at 2 4 6 9 10 12: 120 a.u.
2'F-ANA at 1 3 5 6 9: 87.5 a.u.
2'F-ANA at 2 3 4 5 6 8 9 10 11 13 15: 49.9 a.u.
2'F-ANA at 1 4 6 7 10 13 15: 64.1 a.u.
2'F-ANA at 3 4 7 8 9 14: 364 a.u.

For quick reference, copied from above (block 1):
GGTACCAA: -0.253
ATGACATC: 0.156
GCTCCTTA: -0.0767
AAACTGCA: -0.037
GTTCACCA: -0.131
CGCCCCCC: -0.422
CGTGAGCC: -0.282
CCTGGCGC: -0.373
CTGGTCGA: -0.292
GCCGGTTA: -0.129
AGCAGCTA: -0.0294
AGGCTGAT: -0.0334
ACGTCTGC: -0.199
AGGCGTGG: -0.373
